Measured values pooled from the literature.
Protocols differ between the studies behind these lines. Numbers after ± are the reported error.
Signal transducer and activator of transcription 2 SH2 domain: Signal transducer and activator of transcription 2, SH2 domain (Homo sapiens, UniProt P52630)
Chain of UniProt P52630 (whole entry, looked up): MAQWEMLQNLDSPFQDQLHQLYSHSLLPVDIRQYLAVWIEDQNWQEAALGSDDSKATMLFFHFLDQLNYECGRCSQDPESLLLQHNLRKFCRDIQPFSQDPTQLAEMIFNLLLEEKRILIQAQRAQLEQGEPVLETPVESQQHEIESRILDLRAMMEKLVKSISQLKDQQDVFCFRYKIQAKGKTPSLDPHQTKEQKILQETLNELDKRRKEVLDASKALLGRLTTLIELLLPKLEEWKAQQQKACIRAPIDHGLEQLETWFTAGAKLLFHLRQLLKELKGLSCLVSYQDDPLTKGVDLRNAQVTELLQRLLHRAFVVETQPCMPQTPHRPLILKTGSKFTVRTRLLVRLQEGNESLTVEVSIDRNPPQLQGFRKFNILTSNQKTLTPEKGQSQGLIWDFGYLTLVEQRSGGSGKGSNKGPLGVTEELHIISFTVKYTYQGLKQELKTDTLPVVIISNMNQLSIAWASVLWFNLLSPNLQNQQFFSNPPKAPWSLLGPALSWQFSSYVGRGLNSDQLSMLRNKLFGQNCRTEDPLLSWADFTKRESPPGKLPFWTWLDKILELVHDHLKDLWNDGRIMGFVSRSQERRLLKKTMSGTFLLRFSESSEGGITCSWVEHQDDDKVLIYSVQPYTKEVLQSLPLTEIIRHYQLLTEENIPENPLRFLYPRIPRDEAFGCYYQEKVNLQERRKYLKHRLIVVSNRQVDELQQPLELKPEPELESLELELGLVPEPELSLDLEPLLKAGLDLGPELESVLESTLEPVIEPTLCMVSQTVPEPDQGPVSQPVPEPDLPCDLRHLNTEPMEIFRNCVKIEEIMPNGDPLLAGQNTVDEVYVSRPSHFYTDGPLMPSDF
NCK2 SH2 domain: Cytoplasmic protein NCK2, SH2 domain (NCK2, Homo sapiens, UniProt O43639)
Chain of UniProt O43639 (whole entry, looked up): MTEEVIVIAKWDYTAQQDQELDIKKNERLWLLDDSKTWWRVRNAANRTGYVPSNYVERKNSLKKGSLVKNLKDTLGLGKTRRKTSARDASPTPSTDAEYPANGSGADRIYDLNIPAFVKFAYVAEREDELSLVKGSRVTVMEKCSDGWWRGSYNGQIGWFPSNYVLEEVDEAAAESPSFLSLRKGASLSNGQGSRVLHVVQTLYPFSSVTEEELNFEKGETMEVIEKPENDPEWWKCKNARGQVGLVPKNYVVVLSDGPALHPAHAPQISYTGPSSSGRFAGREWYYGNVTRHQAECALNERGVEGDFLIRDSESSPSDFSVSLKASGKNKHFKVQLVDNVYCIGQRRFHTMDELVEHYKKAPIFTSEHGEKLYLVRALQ
ZAP70 SH2 domains: Tyrosine-protein kinase ZAP-70, SH2 domains (ZAP70, Homo sapiens, UniProt P43403)
Chain of UniProt P43403 (whole entry, looked up): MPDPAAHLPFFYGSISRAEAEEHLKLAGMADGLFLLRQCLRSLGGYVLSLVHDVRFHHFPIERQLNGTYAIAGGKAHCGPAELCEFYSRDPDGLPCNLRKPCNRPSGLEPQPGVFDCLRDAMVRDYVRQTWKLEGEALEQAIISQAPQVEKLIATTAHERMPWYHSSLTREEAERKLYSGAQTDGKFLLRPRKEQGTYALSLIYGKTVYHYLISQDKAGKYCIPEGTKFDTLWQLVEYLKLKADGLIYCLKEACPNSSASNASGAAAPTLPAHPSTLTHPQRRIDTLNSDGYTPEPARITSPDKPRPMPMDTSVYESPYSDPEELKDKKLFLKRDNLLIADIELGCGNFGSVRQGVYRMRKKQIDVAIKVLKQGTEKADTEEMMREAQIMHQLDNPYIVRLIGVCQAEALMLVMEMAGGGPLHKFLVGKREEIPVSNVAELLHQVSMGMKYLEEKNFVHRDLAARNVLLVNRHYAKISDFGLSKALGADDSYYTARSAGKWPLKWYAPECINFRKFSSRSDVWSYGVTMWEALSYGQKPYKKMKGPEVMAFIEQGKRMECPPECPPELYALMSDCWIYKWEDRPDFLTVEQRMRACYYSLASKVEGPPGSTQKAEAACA
Chain of UniProt P00512 (whole entry, unmodified, looked up): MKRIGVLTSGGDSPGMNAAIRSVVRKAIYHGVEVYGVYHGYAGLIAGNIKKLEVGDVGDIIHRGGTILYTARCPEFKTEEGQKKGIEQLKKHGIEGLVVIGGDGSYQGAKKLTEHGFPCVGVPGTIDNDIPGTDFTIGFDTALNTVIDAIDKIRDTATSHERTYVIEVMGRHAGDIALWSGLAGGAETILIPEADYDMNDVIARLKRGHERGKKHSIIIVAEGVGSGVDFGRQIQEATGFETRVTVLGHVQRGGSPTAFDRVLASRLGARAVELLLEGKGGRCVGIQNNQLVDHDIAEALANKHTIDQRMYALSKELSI
Chain of UniProt P04905 (whole entry, looked up): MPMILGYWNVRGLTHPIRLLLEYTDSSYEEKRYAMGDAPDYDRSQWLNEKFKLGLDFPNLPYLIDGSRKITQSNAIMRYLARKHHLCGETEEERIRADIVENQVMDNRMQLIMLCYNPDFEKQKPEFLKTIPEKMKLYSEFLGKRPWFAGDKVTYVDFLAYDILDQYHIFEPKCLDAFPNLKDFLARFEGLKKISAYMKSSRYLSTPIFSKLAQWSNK
Chain of UniProt P08510 (whole entry, unmodified, looked up): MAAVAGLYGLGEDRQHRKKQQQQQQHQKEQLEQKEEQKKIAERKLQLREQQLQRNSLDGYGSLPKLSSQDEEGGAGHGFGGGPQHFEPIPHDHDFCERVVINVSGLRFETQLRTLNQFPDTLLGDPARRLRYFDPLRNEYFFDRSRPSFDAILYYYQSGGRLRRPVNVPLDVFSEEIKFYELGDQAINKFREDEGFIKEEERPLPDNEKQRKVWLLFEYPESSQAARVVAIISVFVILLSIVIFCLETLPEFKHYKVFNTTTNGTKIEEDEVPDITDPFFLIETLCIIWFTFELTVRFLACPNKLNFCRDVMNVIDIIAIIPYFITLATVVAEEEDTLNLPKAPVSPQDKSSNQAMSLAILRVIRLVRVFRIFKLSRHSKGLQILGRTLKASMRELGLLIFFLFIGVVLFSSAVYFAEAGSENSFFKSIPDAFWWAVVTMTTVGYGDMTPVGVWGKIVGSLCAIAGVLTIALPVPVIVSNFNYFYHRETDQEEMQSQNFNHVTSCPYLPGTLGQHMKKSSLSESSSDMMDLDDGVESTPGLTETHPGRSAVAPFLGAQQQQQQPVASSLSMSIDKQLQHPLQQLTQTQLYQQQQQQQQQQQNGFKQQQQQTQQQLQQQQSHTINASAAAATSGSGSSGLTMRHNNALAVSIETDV
Chain of UniProt O60674 (whole entry, looked up): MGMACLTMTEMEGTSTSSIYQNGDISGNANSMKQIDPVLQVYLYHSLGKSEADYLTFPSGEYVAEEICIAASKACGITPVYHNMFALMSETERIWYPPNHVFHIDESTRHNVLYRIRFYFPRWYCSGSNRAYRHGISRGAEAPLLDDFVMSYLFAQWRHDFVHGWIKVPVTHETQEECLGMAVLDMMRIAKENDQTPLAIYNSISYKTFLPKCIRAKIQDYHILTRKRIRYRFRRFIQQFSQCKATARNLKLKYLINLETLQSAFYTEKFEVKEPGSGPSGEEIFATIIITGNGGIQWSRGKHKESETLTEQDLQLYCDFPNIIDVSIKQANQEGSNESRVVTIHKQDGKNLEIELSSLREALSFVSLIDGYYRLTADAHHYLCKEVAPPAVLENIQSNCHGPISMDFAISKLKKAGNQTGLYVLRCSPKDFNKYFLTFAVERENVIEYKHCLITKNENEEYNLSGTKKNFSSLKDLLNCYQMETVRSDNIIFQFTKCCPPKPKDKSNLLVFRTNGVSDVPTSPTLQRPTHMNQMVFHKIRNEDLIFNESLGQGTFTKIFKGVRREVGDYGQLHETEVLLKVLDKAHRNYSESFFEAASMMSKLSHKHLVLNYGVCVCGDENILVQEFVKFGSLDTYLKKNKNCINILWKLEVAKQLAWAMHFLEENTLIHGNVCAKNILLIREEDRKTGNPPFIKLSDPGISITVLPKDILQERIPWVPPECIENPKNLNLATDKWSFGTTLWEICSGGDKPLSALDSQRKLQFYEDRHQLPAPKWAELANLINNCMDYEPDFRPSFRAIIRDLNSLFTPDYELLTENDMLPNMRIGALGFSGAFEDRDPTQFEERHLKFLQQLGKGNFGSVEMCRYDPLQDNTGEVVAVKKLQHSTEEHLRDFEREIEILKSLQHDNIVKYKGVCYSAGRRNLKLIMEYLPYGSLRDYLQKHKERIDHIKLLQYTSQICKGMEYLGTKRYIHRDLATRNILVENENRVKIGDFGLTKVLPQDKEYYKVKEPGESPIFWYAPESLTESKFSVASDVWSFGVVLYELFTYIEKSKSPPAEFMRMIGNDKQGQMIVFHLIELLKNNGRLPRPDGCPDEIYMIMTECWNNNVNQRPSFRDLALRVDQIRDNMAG
Chain of UniProt Q92PC8 (whole entry, unmodified, looked up): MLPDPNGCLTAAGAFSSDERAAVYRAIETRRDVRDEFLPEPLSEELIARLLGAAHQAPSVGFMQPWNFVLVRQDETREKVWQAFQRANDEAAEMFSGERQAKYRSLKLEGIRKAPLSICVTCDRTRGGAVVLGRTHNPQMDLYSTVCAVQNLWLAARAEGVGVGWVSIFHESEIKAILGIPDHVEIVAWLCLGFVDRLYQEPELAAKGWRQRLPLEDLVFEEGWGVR
Chain of UniProt P22748 (whole entry, looked up): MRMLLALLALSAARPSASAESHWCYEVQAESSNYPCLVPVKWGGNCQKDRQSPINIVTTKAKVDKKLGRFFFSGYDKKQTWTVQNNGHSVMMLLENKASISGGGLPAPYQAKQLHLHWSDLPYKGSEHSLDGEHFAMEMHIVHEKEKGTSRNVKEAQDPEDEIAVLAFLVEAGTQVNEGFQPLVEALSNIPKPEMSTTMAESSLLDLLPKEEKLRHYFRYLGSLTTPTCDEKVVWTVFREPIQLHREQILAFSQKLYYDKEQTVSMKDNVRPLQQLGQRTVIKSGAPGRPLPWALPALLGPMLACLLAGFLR

SMILES | target or system | test | system | setting | endpoint | value
CC1=C(N(C)C)C(=O)c2ccccc2C1=O | Reaction center protein L chain, QB site (pufL, Cereibacter sphaeroides, UniProt P0C0Y8) | QB site binding, competitive inhibitor | – | – | Kd | > 100 µM
Cn1c2cccc(=O)c-2nc2ccccc21 | TetR-family regulator NalD (Pseudomonas aeruginosa, UniProt Q9HY46, F132A/N129A/V133A) | – | – | – | Kd | 117 µM
O=S(=O)(O)c1cccc2cccc(Nc3ccccc3)c12 | Gstm1 (Rattus norvegicus, UniProt P04905) | isothermal titration calorimetry | – | – | Kd | 27 µM
CC[C@H](CO)Nc1nc(NCc2ccc(-c3ccccn3)cc2)c2ncn(C(C)C)c2n1 | Phosphatidylinositol 5-phosphate 4-kinase type-2 gamma (PIP4K2C, Homo sapiens, UniProt Q8TBX8) | binding, competition affinity chromatography | SH-SY5Y cell extract | – | Kd | 14.5 µM
CC[C@H](C)[C@H](NC(=O)[C@H](CC(=O)O)NC(=O)[C@H](C)NC(=O)[C@H](Cc1ccc(OP(=O)(O)O)cc1)NC(=O)[C@H](CCCCN)NC(=O)[C@@H](NC(=O)[C@H](CC(=O)O)NC(=O)CNC(=O)[C@H](CCCCN)NC(=O)[C@H](CCSC)NC(=O)[C@H](CC(=O)O)NC(=O)[C@H](CC(C)C)NC(=O)[C@H](CCSC)NC(=O)c1ccc2c(c1)C(=O)OC21c2ccc(N(C)C)cc2Oc2cc(N(C)C)ccc21)C(C)C)C(=O)N[C@@H](CCC(=O)O)C(=O)N[C@@H](CO)C(=O)N[C@@H](CO)C(=O)N[C@@H](CC(N)=O)C(=O)N[C@@H](CC(=O)O)C(=O)O | Signal transducer and activator of transcription 2 SH2 domain | binding | – | – | Kd | 0.672 µM
Cc1cc2nc3c(=O)[nH]c(=O)nc-3n(C[C@H](O)[C@H](O)[C@H](O)COP(=O)(O)O)c2cc1C | 5,6-dimethylbenzimidazole synthase (bluB, Rhizobium meliloti, UniProt Q92PC8, R34E) | binding | Sinorhizobium meliloti | – | Kd | 11 ± 1 µM
CC(C)C[C@H](NC(=O)[C@@H](NC(=O)[C@H](CO)NC(=O)[C@H](CO)NC(=O)[C@@H](NC(=O)[C@H](CC(=O)O)NC(=O)[C@H](CC(C)C)NC(=O)[C@@H]1CCCN1C(=O)[C@H](CO)NC(=O)c1ccc2c(c1)C(=O)OC21c2ccc(N(C)C)cc2Oc2cc(N(C)C)ccc21)[C@@H](C)O)C(C)C)C(=O)N[C@@H](Cc1ccc(OP(=O)(O)O)cc1)C(=O)N[C@H](C(=O)N[C@@H](C)C(=O)N[C@H](C(=O)N[C@@H](CCC(N)=O)C(=O)N1CCC[C@H]1C(=O)N[C@@H](CC(N)=O)C(=O)N[C@@H](CCC(=O)O)C(=O)N[C@@H](CC(=O)O)C(=O)O)C(C)C)[C@@H](C)O | Signal transducer and activator of transcription 2 SH2 domain | binding | – | – | Kd | 0.997 µM
CSCC[C@H](N)C(=O)N[C@@H](C)C(=O)N[C@@H](C)C(=O)N[C@H](C(=O)N[C@@H](C)C(=O)NCC(=O)N[C@@H](CC(C)C)C(=O)N[C@@H](Cc1ccc(O)cc1)C(=O)NCC(=O)N[C@@H](CC(C)C)C(=O)NCC(=O)N[C@@H](CCC(=O)O)C(=O)N[C@@H](CC(=O)O)C(=O)N[C@@H](CCCNC(=N)N)C(=O)N[C@@H](CCC(N)=O)C(=O)N[C@@H](Cc1c[nH]cn1)C(=O)N[C@@H](CCCNC(=N)N)C(=O)N[C@@H](CCCCN)C(=O)N[C@@H](CCCCN)C(=O)N[C@@H](CCC(N)=O)C(N)=O)C(C)C | Sh, DEL6-46 (Drosophila melanogaster, UniProt P08510) | ion current, blocker, inside-out patch clamp | – | +70 mV | Kd | 3.7 µM
CO[C@@H]1[C@@H](OC(N)=O)[C@@H](O)[C@H](Oc2ccc3c(O)c(NC(=O)c4ccc(O)c(CC=C(C)C)c4)c(=O)oc3c2C)OC1(C)C | TetR-family regulator NalD (Pseudomonas aeruginosa, UniProt Q9HY46, F174A/H167A/N175A) | – | – | – | Kd | 194 µM
CSCC[C@H](NC(=O)CNC(=O)[C@H](Cc1ccccc1)NC(=O)[C@H](CC(=O)O)NC(=O)CNC(=O)c1ccc2c(c1)C(=O)OC21c2ccc(N(C)C)cc2Oc2cc(N(C)C)ccc21)C(=O)N[C@@H](CO)C(=O)N[C@@H](CCCNC(=N)N)C(=O)N[C@@H](CC(=O)O)C(=O)N[C@H](C(=O)N[C@@H](Cc1ccc(OP(=O)(O)O)cc1)C(=O)N[C@@H](CO)C(=O)N[C@H](C(=O)N[C@@H](CC(=O)O)C(=O)N[C@@H](Cc1ccc(O)cc1)C(=O)N[C@@H](Cc1ccc(O)cc1)C(=O)N[C@@H](CCCNC(=N)N)C(=O)N[C@H](C(=O)N[C@@H](CC(=O)O)C(=O)O)C(C)C)[C@@H](C)O)C(C)C | Tyrosine-protein kinase JAK2, SH2 domain (JAK2, Homo sapiens, UniProt O60674) | binding | – | – | Kd | 0.618 µM
O=C(O[C@@H]1Cc2c(O)cc(O)cc2O[C@@H]1c1cc(O)c(O)c(O)c1)c1cc(O)c(O)c(O)c1 | human coronavirus OC43 | virus-induced cell killing | MRC-5 | maximum over 10 doses | maximum inhibition | 0%
CC[C@H](C)[C@@H]1NC(=O)[C@H](CCCNC(=N)N)NC(=O)[C@@H]2CCCN2C(=O)[C@H](Cc2ccccc2)NC(=O)[C@H]([C@@H](C)O)NC(=O)CNC(=O)[C@H](CC(C)C)NC(=O)[C@@H]2CCCN2C(=O)[C@H]([C@@H](C)O)NC(=O)[C@H](Cc2c[nH]c3ccccc23)NC(=O)[C@H](Cc2ccc(O)cc2)NC(=O)[C@H]([C@@H](C)CC)NC(=O)[C@H]([C@@H](C)O)NC(=O)[C@H]([C@@H](C)O)NC(=O)[C@@H](Cc2ccc(O)cc2)NC(=O)CSC[C@@H](C(N)=O)NC(=O)[C@H](CCCNC(=N)N)NC1=O | VPS35/VPS29 (Homo sapiens, UniProt Q96QK1+Q9UBQ0) | binding, ITC | – | 25 °C, heterodimer | Kd | 0.065 ± 0.005 µM
C[N+](C)(C)[C@@H](Cc1c[nH]c(=S)[nH]1)C(=O)[O-] | egtUBC (Streptococcus pneumoniae, UniProt A0A0H2ZQB9, I243P) | binding | – | – | Kd | 45.5 µM
Nc1ncnc2c1ncn2[C@@H]1O[C@H](COP(=O)(O)OP(=O)(O)O)[C@@H](O)[C@H]1O | Cell cycle histidine kinase CckA, R374A; cytoplasmic region (Caulobacter vibrioides, UniProt Q9X688, R374A) | – | – | – | Kd | 360 µM
CC(C)C[C@H](NC(=O)[C@H](Cc1ccc(OP(=O)(O)O)cc1)NC(=O)[C@H](CCC(=O)O)NC(=O)[C@@H]1CCCN1C(=O)[C@H](CC(N)=O)NC(=O)CNC(=O)[C@@H](NC(=O)[C@H](C)NC(=O)[C@@H](NC(=O)[C@H](CO)NC(=O)[C@H](Cc1c[nH]cn1)NC(=O)c1ccc2c(c1)C(=O)OC21c2ccc(N(C)C)cc2Oc2cc(N(C)C)ccc21)[C@@H](C)O)C(C)C)C(=O)N[C@@H](CC(N)=O)C(=O)N[C@H](C(=O)N[C@H](C(=O)N[C@@H](CCC(N)=O)C(=O)N1CCC[C@H]1C(=O)N[C@H](C(=O)N[C@@H](CC(=O)O)C(=O)O)[C@@H](C)O)C(C)C)[C@@H](C)O | NCK2 SH2 domain | binding | – | – | Kd | 0.326 µM
NS(=O)(=O)C(F)(F)F | Carbonic anhydrase 4 (CA4, Homo sapiens, UniProt P22748) | binding | – | – | Kd | 0.118 µM
CC[C@H](C)[C@H](NC(=O)[C@H](Cc1ccc(OP(=O)(O)O)cc1)NC(=O)[C@H](CCC(=O)O)NC(=O)[C@@H]1CCCN1C(=O)[C@@H](NC(=O)[C@@H]1CCCN1C(=O)[C@H](CC(C)C)NC(=O)[C@H](Cc1ccccc1)NC(=O)[C@@H](NC(=O)[C@H](CC(=O)O)NC(=O)[C@H](CC(=O)O)NC(=O)c1ccc2c(c1)C(=O)OC21c2ccc(N(C)C)cc2Oc2cc(N(C)C)ccc21)[C@@H](C)O)C(C)C)C(=O)N[C@@H](CC(N)=O)C(=O)N[C@@H](CCC(N)=O)C(=O)N[C@@H](CO)C(=O)N[C@H](C(=O)N1CCC[C@H]1C(=O)N[C@@H](CCCCN)C(=O)N[C@@H](CC(=O)O)C(=O)O)C(C)C | NCK2 SH2 domain | binding | – | – | Kd | 1.1 µM
O=C(CO)[C@@H](O)[C@H](O)[C@H](O)COP(=O)(O)O | pfkA (Geobacillus stearothermophilus, UniProt P00512, T156A) | – | – | – | Kd | 520 ± 10 µM
N[C@@H](Cc1ccc(O)cc1)C(=O)O | Methyl-accepting chemotaxis protein McpA, ligand-binding domain (Bacillus velezensis, UniProt A7Z835) | binding, biolayer interferometry | – | 25 °C, 1:1 binding model | Kd | 133 ± 32.8 µM
CC[C@H](C)[C@H](NC(=O)[C@H](CC(=O)O)NC(=O)[C@H](Cc1ccccc1)NC(=O)[C@@H](NC(=O)[C@H](CC(N)=O)NC(=O)[C@@H](NC(=O)[C@H](CC(=O)O)NC(=O)c1ccc2c(c1)C(=O)OC21c2ccc(N(C)C)cc2Oc2cc(N(C)C)ccc21)C(C)C)[C@@H](C)O)C(=O)N[C@H](C(=O)N[C@H](C(=O)N[C@@H](Cc1ccc(OP(=O)(O)O)cc1)C(=O)N[C@@H](CC(C)C)C(=O)N[C@@H](CC(C)C)C(=O)N[C@@H](CCC(N)=O)C(=O)NCC(=O)N[C@@H](CCCNC(=N)N)C(=O)N[C@@H](CCCNC(=N)N)C(=O)N[C@@H](CC(C)C)C(=O)N[C@@H](CC(=O)O)C(=O)O)C(C)C)[C@@H](C)O | ZAP70 SH2 domains | binding | – | – | Kd | 0.297 µM
CC[C@H](C)[C@H](NC(=O)[C@H](CCCNC(=N)N)NC(=O)CNC(=O)[C@H](Cc1c[nH]c2ccccc12)NC(=O)[C@@H]1CSC[C@@H](NC(=O)[C@H](Cc2ccc(O)cc2)NC(=O)[C@H](Cc2c[nH]c3ccccc23)NC(=O)[C@H](CC(C)C)NC(=O)CNC(=O)[C@H](CCCNC(=N)N)NC(=O)c2ccc3c(c2)C(=O)OC32c3ccc(O)cc3Oc3cc(O)ccc32)C(=O)N[C@@H](Cc2ccccc2)C(=O)N[C@@H](CO)C(=O)N1)C(=O)NCC(=O)N[C@@H](CCCNC(=N)N)C(=O)N[C@@H](CCCNC(=N)N)C(=O)NCCCOCCOCCOCCCNC(=O)CCC(=O)NCCCOCCOCCOCCCNC(=O)CCC(=O)NCCCOCCOCCOCCCNC(=O)CCC(=O)N[C@@H](C)C(=O)O | srtA (Staphylococcus aureus, UniProt Q2FV99) | binding, fluorescence polarization | – | pH 7.5 | Kd | 9.9 ± 0.81 µM
CC[C@H](C)[C@H](NC(=O)[C@H](Cc1ccc(OP(=O)(O)O)cc1)NC(=O)[C@H](CCC(=O)O)NC(=O)[C@H](Cc1c[nH]cn1)NC(=O)CNC(=O)[C@H](CC(=O)O)NC(=O)[C@H](CO)NC(=O)[C@H](CO)NC(=O)[C@@H](NC(=O)[C@H](CO)NC(=O)[C@H](CCC(=O)O)NC(=O)c1ccc2c(c1)C(=O)OC21c2ccc(N(C)C)cc2Oc2cc(N(C)C)ccc21)C(C)C)C(=O)N[C@@H](Cc1ccc(O)cc1)C(=O)N[C@H](C(=O)N[C@@H](CC(=O)O)C(=O)N1CCC[C@H]1C(=O)N[C@@H](CCSC)C(=O)N[C@@H](CCC(N)=O)C(=O)N[C@@H](CC(=O)O)C(=O)O)C(C)C | ZAP70 SH2 domains | binding | – | – | Kd | 1.05 µM
C=C(OP(=O)(O)O)C(=O)O | pfkA (Geobacillus stearothermophilus, UniProt P00512, S159A) | – | – | – | Kd | 12 ± 1 µM

Some of these lines once more:
SMILES | target or system | test | system | setting | endpoint | value
O=C(CO)[C@@H](O)[C@H](O)[C@H](O)COP(=O)(O)O | pfkA (Geobacillus stearothermophilus, UniProt P00512, T156A) | – | – | – | Kd | 520 ± 10 µM
